Experimental data from different studies.
Parts stem from different laboratories: compare values within a part only. Changes are numbered by the printed parent chain.

Block 1
Target: Ras GTPase-activating protein-binding protein 1, full length (G3BP1, Homo sapiens, UniProt Q13283)
UniProt Q13283, sequence (whole entry, looked up): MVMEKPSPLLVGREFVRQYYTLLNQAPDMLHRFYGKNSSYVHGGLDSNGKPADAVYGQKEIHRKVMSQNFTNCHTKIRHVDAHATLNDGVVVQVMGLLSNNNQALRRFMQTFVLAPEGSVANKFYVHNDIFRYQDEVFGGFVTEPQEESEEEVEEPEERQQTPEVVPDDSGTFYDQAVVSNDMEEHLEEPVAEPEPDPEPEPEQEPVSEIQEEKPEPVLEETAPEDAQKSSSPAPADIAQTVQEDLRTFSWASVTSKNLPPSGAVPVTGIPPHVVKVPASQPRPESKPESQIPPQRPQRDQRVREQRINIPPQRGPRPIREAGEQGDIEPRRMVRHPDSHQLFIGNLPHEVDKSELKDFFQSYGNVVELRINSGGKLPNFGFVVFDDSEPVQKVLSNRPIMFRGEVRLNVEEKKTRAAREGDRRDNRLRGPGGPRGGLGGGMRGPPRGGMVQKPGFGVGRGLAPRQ
Method: RNA Bind-n-Seq
Molecule type: RNA
Matrix: in vitro
Tested at: 200 nM
Notes: whole 134-nt RNA, ends assumed
With: 150 mM KCl
Relative to: input library
Direction: higher = stronger binding
Shared flanks, not repeated: GGGAGUUCUACAGUCCGACGAUC … UGGAAUUCUCGGGUGUCAAGG
Strand | log2 enrichment
UGGGAGGUGGAUUUUGUUUAUUUUUUUAGCUCAUUUCCAGAGGUGGGAAUUUUUUUUUAAUAUGUGUCAUGAAUAAAGUUGUUUUUGAAA | -0.354
GUCCUGUGCUACACAUCGUAUGUACCGAAUCGGGGCCCCCGGGCCCCCGGCCCCCGGGAAAGUAUUAUGUUACGCCGUUCGGAUCUGCAC | -0.293
UUACAUUACCUGGUGAAAUAGACAUUGACAGUAUCUCCUAUGAAGAGCUUUCACCACCUGAUGAAGAGCCUGCCAAGAAUAAAAAGGAAA | -1.1
GCAGGAAGUAAAAACAAAUGGAAAUGCUUCGGAUAGUGGCAGGGGUGGGGGUUGCUAAGGAAAAGGUGGGAUGGGAGUGGGUAAAGAGUU | 1.08
CCUGUGCUACACAUCGUAUGUACCGAAUCGGAAAAAAAGGGAAAAAAAGGAAAAAAAGGGAAAGUAUUAUGUUACGCCGUUCGGAUCUGC | -0.956
ACCAUGCAGGUGGGCAUCUUUGGGAAGUGGGGCAAGGGCGGGAUAGGGAGGGGGGUAACACUUUGGGAACAGGUGGUCCCAGGUCGUUUC | 1.14
CCUGUGCUACACAUCGUAUGUACCGAAUCGGGGUUUUUUUGGGGAGGGGUUUUUUUGGGGAAAGUAUUAUGUUACGCCGUUCGGAUCUGC | 0.0876
UCAAGUCCUGUGCUACACAUCGUAUGUACCGAAUCGGAAAGGUUUUUUUGGAGGAAAGUAUUAUGUUACGCCGUUCGGAUCUGCACUUCC | -1.13
UCAAGUCCUGUGCUACACAUCGUAUGUACCGAAUCGGGAAAGGAAAGGAAAGGGAAAGUAUUAUGUUACGCCGUUCGGAUCUGCACUUCC | -0.891

Block 2
Target: RNA binding protein fox-1 homolog 2, RRM domain, GST-SBP tag (RBFOX2, Homo sapiens, UniProt O43251-10, residues 100-194)
Method: RNA Bind-n-Seq
Molecule type: RNA
Matrix: in vitro
Tested at: 365 nM
Notes: natural RNA segment, single round, ends assumed
Relative to: no-protein control
Direction: higher = stronger binding
Shared flanks, not repeated: GGGAGUUCUACAGUCCGACGAUC … UGGAAUUCUCGGGUGCCAA
Residues (chain): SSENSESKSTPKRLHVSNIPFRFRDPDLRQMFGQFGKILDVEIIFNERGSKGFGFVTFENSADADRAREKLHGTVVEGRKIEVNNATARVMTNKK
Strand | RBNS enrichment (R)
AGACCAGCUGCCCUCCUGGCUUUUGGCUUUUUGGUGUCCUUGAAGGAGACCAGUCAUGAGUACCAAGGAAUUUGUCAGCUUGGUUCUAGAACUUAGCAGAGGUUGAGCUC | 0.234
GUGCGGAGGGAGCCACCUCACCCUGCAGCCCAGUUUGCAGGUGUGGCCUUGUUUCUCCUUGCCCAGCAGUGCUGCCUUCAGCGGCCGUGACGGGGCCAGCUGGACACACG | 0.237
CCUGCGGCCUCUGCCAAGACCUAACUCUAGACCACCUUCAGCUCUUUUAUUUUAUUUUUUUAGUUUUAUUUUGCACGUGUAGAGUUUUUGUCAUCAGACAAGGACUUUGA | 6.48
AAUAUAAUAUAUAUAAAUAUGCUACAUAUAUAUUUAUAAAAUUUCUAGUGGGAGUUCUAUAUAAAUGUUUCUUUGGUAUUCUUCAGCCUGUGAUUUAAAGUUUUACAAAA | 2.24
GAUCAUGUGUGCAGAUGUCCUGUGAGGAGGGAGCAUAAAGCACUGUGAAAAUGUAGCAUGCUGUCUAUGUGGACGCCCUAGGAUGAGUGAUGUGAAACGCUGCACUACUG | 21.9
CACAGCCCUGACACAGGUGUGGCUACUGGAGGGGCCUUCAUACCUGCGGCCCCAAAGCCCCUGGGCUUGGCUGUUUGAGGCAGAGGUGAUGGACUCCGGGGGCCUGACAC | 0.641
AUAGCUCUGUGCUCUGGGCAGCUCUGAGCUCUCAGCCCUGUUGCUUUCAAUGUCAGUCACAGAGUGGAAGUUUCCCCAAAGUGGAAAGCUACCAUUGGGAACACAAGGGG | 0.223
UAGCUGAUUUCCAUCCAUUGGCUAAUGGCCAACUUCAUGUCCUUGGGUAACUUGCCACCACCCUGGAUCCAAGUUCCCAUGGAGGGGAAAAUUAGGACAUUUAGUAGUGA | 0.487

Block 3
Target: Interferon regulatory factor 7, full length, phosphomimetic (IRF7, Homo sapiens, UniProt Q92985, residues 1-503, S471D/S472D/S475D/S476D/S477D/S483D/S484D/S487D)
UniProt Q92985, sequence (whole entry, unmodified, looked up): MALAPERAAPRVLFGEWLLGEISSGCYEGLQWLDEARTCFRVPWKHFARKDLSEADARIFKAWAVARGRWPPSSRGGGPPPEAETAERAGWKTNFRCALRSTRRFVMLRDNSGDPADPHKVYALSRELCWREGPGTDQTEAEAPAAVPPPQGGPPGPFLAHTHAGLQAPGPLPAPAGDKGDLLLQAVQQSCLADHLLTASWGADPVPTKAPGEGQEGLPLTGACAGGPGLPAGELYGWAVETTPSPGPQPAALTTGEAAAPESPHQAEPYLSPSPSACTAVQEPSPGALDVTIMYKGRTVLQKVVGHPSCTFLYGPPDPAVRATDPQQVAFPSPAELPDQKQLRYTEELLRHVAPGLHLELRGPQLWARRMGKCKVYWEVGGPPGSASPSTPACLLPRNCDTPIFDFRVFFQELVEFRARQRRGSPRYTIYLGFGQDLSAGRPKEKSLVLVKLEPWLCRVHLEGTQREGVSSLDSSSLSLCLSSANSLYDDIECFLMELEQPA
Method: protein-binding microarray
Molecule type: double-stranded DNA, one strand shown
Matrix: in vitro
Tested at: 2200 nM top
Notes: 60-bp whole probe
With: salmon DNA 0.4 mg/ml
Relative to: random background probes
Direction: higher = stronger binding
Shared flanks, not repeated: GCCTAGCAC … GTCTTGATTCGCTTGACGCTGCTG
Strand | fitted relative affinity [z-score]
TTAAGACTGGGTATCGGTTAGTGCTAG | -0.348
TTAGATATCGAGTTTCGATTAGTGCTA | 3.98
GCCGGTATCCTACTGCTGACGTGCTAG | 0.687
GACGAACTGGCGACTGGAGACGTGCTA | -0.28
TCACATATACACTGTGTATCTGTGCTA | 1.27
CTCCCTTTCAGTTTTCCTCTGTGCTAG | 4.61
TCATCTCCCAGACTGGAGTGGTGCTAG | 0.445
GACGGTTTCGATTCCGGGACGTGCTAG | 9.6
GGCGATTTCAGTCTCGAGACGTGCTAG | 0.502
TTAGGTATCGGTCTGGGTTAGTGCTAG | 0.454
GACGCTTCCGGTTTCGGGACGTGCTAG | 6.07
TGCTTTCCAATTCTCTTTTCGTGCTAG | 5.21
CATTATATTTTAATCACATAGTGCTAG | 0.555
TTAGATATCGGGATTGGATTAGTGCTA | 0.17
GACGGACTGAACTTTCGGGACGTGCTA | 2.9
GACGGTTTCCTTTCCTTGACGTGCTAG | 4.77
TCATCTCTGGGTCGGGCACTGTGCTAG | 0.304
CGGGGGTGGGGAGAGCCCCTGTGCTAG | 0.676
CTAGATCTCAGTATCGATTAGTGCTAG | 0.487

Block 4
Target: CRIPT, C-terminal peptide
Method: DHFR complementation, deep sequencing
Matrix: yeast
Notes: single substitutions, model-inferred values
Relative to: wild type
Direction: higher = weaker binding
Starting sequence: ERBIN, PDZ domain 1 (human); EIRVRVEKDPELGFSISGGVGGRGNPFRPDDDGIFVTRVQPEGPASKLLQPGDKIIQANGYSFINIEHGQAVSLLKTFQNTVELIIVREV; partner TKNYKQTSV
Change | binding free energy change [kcal/mol]
L12G | 0.451
E11K | -0.273
F63A | 0.618
E11Q | -0.13
R28G | 0.634
E7D | -0.0659
V39L | 0.304
D30I | 0.422
D30R | 0.232
V87M | -0.0741
V72N | 1.72
I64F | -0.117
G52A | 0.0225
N65R | 0.0873
G43E | 0.555
I86D | 1.1
P26Y | 0.668
V82D | 1.21
P26I | 0.925
N59F | 0.506
G69Q | 0.008
E42C | 0.113
V36N | 0.827
G69T | 0.0831
